Measured values of several laboratories.
Every numbered part comes from another study and shows a few of its results, in no order. Substitutions count along the parent as printed.

Set 1 — target: ATF1, bZIP domain (human); method: DHFR protein complementation; sample: yeast; reference: wild-type JUN-FOS pair; reading: higher = stronger binding; quantity: binding fitness
Setting: single substitutions, most at no-binding floor
Parent: JUN, bZIP domain (human); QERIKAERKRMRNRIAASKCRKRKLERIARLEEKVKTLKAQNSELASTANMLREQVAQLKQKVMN; partner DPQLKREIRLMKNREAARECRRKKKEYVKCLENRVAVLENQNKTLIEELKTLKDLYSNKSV
K36V: -1.44 natural log
L31R: -1.53 natural log
T37W: -1.48 natural log
N42K: -1.48 natural log
A40S: -1.44 natural log
L31P: -1.54 natural log
V35Q: -1.6 natural log
E32W: -1.5 natural log
R30G: -1.48 natural log
Q58R: -1.39 natural log
A46D: -1.35 natural log
E54T: -1.56 natural log
L31G: -1.53 natural log
S43P: -1.48 natural log
L38Q: -1.45 natural log
K36A: -1.45 natural log
S47L: -1.4 natural log
S47W: -1.5 natural log
S47A: -1.48 natural log
A46V: -1.45 natural log
L31V: -1.52 natural log
A29V: -1.45 natural log
R30N: -1.51 natural log
T37C: -1.41 natural log
L38N: -1.52 natural log

Set 2 — method: DHFR PCA, deep sequencing; sample: yeast; added: (+)-ABA 4.8 µM; reference: wild-type fitted maximum; reading: higher = stronger binding; quantity: relative binding score
Target: ABI1, truncated, D143A, DHFR fusion (Arabidopsis thaliana)
Setting: methotrexate growth selection, single substitutions
Parent: PYL1, truncated, DHFR fusion (Arabidopsis thaliana); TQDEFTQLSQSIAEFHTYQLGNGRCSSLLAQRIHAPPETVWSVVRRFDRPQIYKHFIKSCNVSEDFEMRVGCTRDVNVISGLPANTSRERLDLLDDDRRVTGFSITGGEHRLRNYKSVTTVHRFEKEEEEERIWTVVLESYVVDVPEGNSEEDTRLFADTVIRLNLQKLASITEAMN; partner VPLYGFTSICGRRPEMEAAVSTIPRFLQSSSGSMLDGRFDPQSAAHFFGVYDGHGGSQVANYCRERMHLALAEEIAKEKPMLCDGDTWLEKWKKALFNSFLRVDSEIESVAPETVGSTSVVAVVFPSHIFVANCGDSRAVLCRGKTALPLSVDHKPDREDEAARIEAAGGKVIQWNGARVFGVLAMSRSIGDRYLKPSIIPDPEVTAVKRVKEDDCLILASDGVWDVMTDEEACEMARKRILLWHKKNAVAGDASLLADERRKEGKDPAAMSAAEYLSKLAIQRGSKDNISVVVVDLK
S171R: 87.4%
V76Q: 1.86%
D3E: 71.2%
N22H: 78.5%
I79P: 15.5%
N149I: 21.8%
V100A: 67.9%
E152N: 56.3%
D97E: 82.7%
T73H: 68.4%
G71C: -6.85%
K116E: 10.6%
F15M: 28.8%
T160H: 40.8%

Set 3 — method: RNAcompete; form: RNA; sample: in vitro; tested at: 20 nM; setting: 7-mer, probes averaged, single round; reference: mean of 7-mers; reading: higher = stronger binding; quantity: 7-mer Z-score
Target: PABPC1L2, full length, GST fusion (mouse, UniProt A0ABA7IW68)
Construct (chain): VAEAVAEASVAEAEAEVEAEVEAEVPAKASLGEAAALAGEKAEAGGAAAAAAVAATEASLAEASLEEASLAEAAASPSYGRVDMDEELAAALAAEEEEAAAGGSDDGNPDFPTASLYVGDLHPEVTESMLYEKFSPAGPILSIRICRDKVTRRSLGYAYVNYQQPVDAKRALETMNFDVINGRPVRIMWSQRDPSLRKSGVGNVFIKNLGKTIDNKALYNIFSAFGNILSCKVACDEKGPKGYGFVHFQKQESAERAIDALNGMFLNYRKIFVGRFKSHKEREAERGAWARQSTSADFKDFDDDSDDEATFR
GACCUAG: -0.15
GUUCGCG: -0.4
CAAUUUC: -0.224
AGACAGG: -0.128
GAUUCAU: -0.146
UGAGUGU: -0.213
UGUCGCA: -0.333
CCUUUUU: 0.124
ACUAAUC: -0.215
CUCCUCG: -0.565
CAGUUUA: -0.0935
AAUCACU: -0.0264
AAACGCC: 0.62
CUGUCCA: -0.354
GCUUCAC: -0.177
UUAAUAC: -0.182
AACUGCA: 0.0116
ACAGGUG: 0.0714
CCUCCGG: -0.264
AUUAUUG: -0.166
UUAUAGC: -0.0953
ACGUCUA: -0.385
GGCCGAC: 0.066
UAUCGGA: 0.113
AUAUCAA: 0.16

Set 4 — method: protein-binding microarray; form: double-stranded DNA, one strand shown; sample: in vitro; tested at: not given; reading: higher = stronger binding; quantity: E-score
Target: Protein C-ets-1 (ETS1, Homo sapiens, UniProt P14921, residues 1-441, K379A, full length assumed)
Setting: k-mer, scored over probes, only values ≥0.25
Target sequence (chain): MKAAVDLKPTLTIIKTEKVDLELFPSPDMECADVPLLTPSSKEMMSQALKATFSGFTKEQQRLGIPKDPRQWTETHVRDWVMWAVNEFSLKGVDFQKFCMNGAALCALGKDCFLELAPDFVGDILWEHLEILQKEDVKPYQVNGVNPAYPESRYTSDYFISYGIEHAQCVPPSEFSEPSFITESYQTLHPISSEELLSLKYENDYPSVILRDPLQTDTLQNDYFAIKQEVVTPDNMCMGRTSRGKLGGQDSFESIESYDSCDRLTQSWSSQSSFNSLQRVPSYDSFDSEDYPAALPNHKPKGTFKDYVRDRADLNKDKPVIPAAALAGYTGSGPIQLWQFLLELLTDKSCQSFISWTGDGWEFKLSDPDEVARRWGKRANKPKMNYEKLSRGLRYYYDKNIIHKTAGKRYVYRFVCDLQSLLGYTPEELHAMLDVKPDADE
CCCCGCCG: 0.327
ATCCGGTG: 0.418
CGCCCGCC: 0.318
GTGTCGGA: 0.3
ACCGTCGT: 0.298
ATGATACC: 0.257
ATATCAAC: 0.275
CCGGATGA: 0.285
AACATGTA: 0.3
AACGGATA: 0.269
CAATGTAA: 0.253
ACTTACCG: 0.31
GCGGTACC: 0.308
CCGGTTCG: 0.324
GTAGAATA: 0.271
CCGTTGTC: 0.254
TGCCGGCA: 0.381
AAACCGGC: 0.325
ATAATTTA: 0.347
CCGGACGC: 0.272
CCGGTGTA: 0.414
ACCGGAGG: 0.358
CCGGTTCA: 0.311
ACCGTCGG: 0.314
TAACTACA: 0.257

Set 5 — target: CCNF, cyclin fold, Cln2 fusion (human); method: yeast growth competition, sequencing; sample: yeast; setting: weak parent motif; reference: not given; reading: higher = stronger binding; quantity: normalised enrichment score
Parent: PKN2 docking peptide (human); VSAVQKLDFSDTM
F9A: 0.0821
S2L: 0.0967
D8C: 0.71
F9R: 0.718
D8M: 0.601
M13Y: 1.22
T12C: 0.887
M13I: 0.65
T12F: 1.25
F9V: -0.346
T12K: 0.601
T12R: 0.263
S2A: 0.953
K6V: 0.954
M13E: 0.0583
D8E: 0.572
D8K: 0.746
S10I: 0.593
K6T: -0.0615
D11N: 1.04

Excerpt of the above (set 4):
GTGTCGGA: 0.3
AACATGTA: 0.3
CAATGTAA: 0.253
ACTTACCG: 0.31
CCGTTGTC: 0.254
ATGATACC: 0.257
